Measurements collected from several papers.
Parts stem from different laboratories: compare values within a part only. Substitutions count along the parent as printed.

Study 1 — method: protein binding microarray; form: double-stranded DNA, one strand shown; sample: in vitro; concentration: not given; reference: not given; direction: higher = stronger binding
Target: Histone acetyltransferase KAT6A, winged helix 1, GST fusion (KAT6A, Homo sapiens, UniProt Q92794, residues 1-85)
Setting: 8-mer, flanks averaged, mean of 2 arrays, mostly near background
Construct (chain): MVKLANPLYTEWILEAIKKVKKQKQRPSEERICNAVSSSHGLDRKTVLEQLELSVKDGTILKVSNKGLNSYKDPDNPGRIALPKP
With `GAGTAGTA` the E-score was 0.00557.
The E-score of `CCTAGGAG` is reported as -0.142.
The E-score of `CTTGTAAA` is reported as -0.207.
`CCGAGGCG` gave an E-score of 0.274.
The E-score of `ACTATGAT` is reported as -0.094.
`CATAATCA` gave an E-score of -0.224.
With `CAATGGAA` the E-score was 0.00632.
`ACTAGTTA` has an E-score of -0.177.
With `TCCGCCAA` the E-score was 0.158.
The E-score of `ACAGGCGA` is reported as -0.127.
For `ACTGTGCA`, the E-score was -0.106.
`AAAGCGTG` gave an E-score of 0.168.
The E-score of `CCCTTAGA` is reported as -0.283.
The E-score of `GATGTTGC` is reported as 0.0423.
With `GATCGGCC` the E-score was 0.296.
For `GGCTCCAC`, the E-score was -0.00059.
`CAATAGGC` has an E-score of 0.0451.
With `AGCGAATG` the E-score was -0.0224.
`GTAATGGA` gave an E-score of -0.0958.
For `ACTCCAAG`, the E-score was -0.168.
`CTTATTAA` gave an E-score of -0.0774.
`AAGGAAAA` has an E-score of -0.109.
For `ATGGAGCG`, the E-score was 0.0605.
The E-score of `CTCAGCTC` is reported as -0.0684.

Study 2 — method: DHFR PCA, deep sequencing; sample: yeast; with: (+)-ABA 17 µM; reference: wild-type fitted maximum; direction: higher = stronger binding
Target: ABI1, truncated, D143A, DHFR fusion (Arabidopsis thaliana)
Setting: methotrexate growth selection, single substitutions
Starting sequence: PYL1, truncated, DHFR fusion (Arabidopsis thaliana); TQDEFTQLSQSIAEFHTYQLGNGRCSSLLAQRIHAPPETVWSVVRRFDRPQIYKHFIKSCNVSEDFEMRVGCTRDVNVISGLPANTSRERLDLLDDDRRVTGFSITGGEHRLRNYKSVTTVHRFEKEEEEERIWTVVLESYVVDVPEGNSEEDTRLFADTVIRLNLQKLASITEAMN
`E14M`: “relative binding score” 67.2%.
`L94N`: “relative binding score” 3.85%.
`R113N`: “relative binding score” 86.7%.
Under “relative binding score”, `E64W` is recorded as 65.3%.
For `R163A`, “relative binding score” read 56.4%.
`S117V` — result for “relative binding score”: -2.05%.
`I79Q` — result for “relative binding score”: 76.4%.
Under “relative binding score”, `F124G` is recorded as 79.8%.
`S80P` — result for “relative binding score”: 5.58%.
Under “relative binding score”, `V136D` is recorded as 9.31%.
`Q7D`: “relative binding score” 79.8%.
For `D96F`, “relative binding score” read 0.764%.
Under “relative binding score”, `S117T` is recorded as 3.2%.
For `H16L`, “relative binding score” read -2.39%.
`L164V`: “relative binding score” 85.9%.
For `I52Q`, “relative binding score” read 83.8%.
`V145Q` — result for “relative binding score”: 29.5%.
For `W134E`, “relative binding score” read 92.5%.
Under “relative binding score”, `K126N` is recorded as 89.6%.
`R111P`: “relative binding score” 15.6%.
For `S9C`, “relative binding score” read 58.6%.
`K168V`: “relative binding score” 64.1%.
`K168N` — result for “relative binding score”: 97%.
For `T1P`, “relative binding score” read 86.5%.
Under “relative binding score”, `L93W` is recorded as 53%.

Study 3 — method: RNA Bind-n-Seq; form: RNA; sample: in vitro; concentration: 365 nM; reference: no-protein control; direction: higher = stronger binding
Target: RNA binding protein fox-1 homolog 2, RRM domain, GST-SBP tag (RBFOX2, Homo sapiens, UniProt O43251-10, residues 100-194)
Setting: natural RNA segment, single round, ends assumed
Shared flanks, not repeated: GGGAGUUCUACAGUCCGACGAUC … UGGAAUUCUCGGGUGCCAA
Target sequence (chain): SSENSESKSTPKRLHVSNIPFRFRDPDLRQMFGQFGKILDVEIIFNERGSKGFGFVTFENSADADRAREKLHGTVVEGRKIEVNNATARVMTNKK
`AUUUCUGUCCCUGAUGAAAGACUGCCCAUUCACCUUGGUUCCCUCCCCUUGUGGCUAAACGAAAGCAAAUGUCCGGAAGUCUUGAGAAGCUGUGUCGUGUUCCCUGUGGA`: “RBNS enrichment (R)” 0.747.
Under “RBNS enrichment (R)”, `AAUAUACCAAAAAUGUUAUUGUAAUUUUAAUGAGCAUGUAAAGAGUGUAUCAAAAAUUGAUGGGAUAUUAGUGUUAGGUUUUGCUUAAAUGAAAAUUAAUAAAUUCAAAA` is recorded as 5.08.
Under “RBNS enrichment (R)”, `GGUGGCUGGUGCCUCUCCCUAGGAAAGCUUUGGCGUCAUUCAACUCAAGUGUUCUUGUUCUUGUUGCCAAAGAGAAAAGGAUUUUCCUCCACUGUGGAUUCUCCCUCUCC` is recorded as 0.497.
`GUAGGUAACUCUCCCCUCCCAAGUCCAUGUUCCAAGUGGCUAUGUAAAGCAAGAUGAUACAGAAAGCUGCUCUAAAAUCUCACUGAGUGAUUUCACCUUCGCCUACUAUG`: “RBNS enrichment (R)” 0.858.
For `UUUGAGGAUAGCCAGGUUUGAAAUUUUUAGUUUCUCAGGAAGAGCUCUUCUAUGUGGCAGGGGCUGAUAGGGCAAAAUAAAAUGACAAUUUCUUUAUUGCUACAGAGUAU`, “RBNS enrichment (R)” read 0.834.
Under “RBNS enrichment (R)”, `UAAAUAAUAAAGGUUUUAAUUCAGAUCUAGAAGAAAACUGCACAGUUGAAUGCAGAUUUUUAUCCAUAGAUAACUGUAGUGUUUUGAAAUGAUAGGCCCUACCUUUGAAG` is recorded as 1.01.
`CUGUUUCCAGUUUUUAAAAAUGUAAUAUUAUGGAAAGUAUUUUGCUUCAAGUUGAAUAUGUAUUGUGUAUAUACCUCAAGUUCAGGUUAAUGGCUUUGAUUUGUGCUCUA` — result for “RBNS enrichment (R)”: 0.593.
Under “RBNS enrichment (R)”, `AUAAGUUCUUAAGAUGUGUUGGCAGUAUUGCGUCACCCACGGCCGUCCCGGGGGCUGAACGUGUGGCGUUUGGUUACUGAAGCCUGCUCAGGCGAAGCUGGGUCUUGUGC` is recorded as 0.275.
Under “RBNS enrichment (R)”, `ACCAGGAGUCACUGAGCCAAUGACUAUCAGCUGCUGACUAAUCUUCACACUGUAGUUAUUGCUUCAUUUACAGGUCCUCUGUGCUUAAUUGCUGUUUUUGUUGCUGUAGU` is recorded as 0.551.
For `ACGUCACAGAACACCCAGGAAAGGGGAUUUCUGUGGUAUCACCGAGAACAUGUUAGCAGUCUGUCAGACCUGAGCUCUGGCAUGUGCGACAGCACGUUACUAAAGCAGUU`, “RBNS enrichment (R)” read 0.925.
`CUGGGCUCUGCCUUAAUCUCCUGGACUCCGGAGGACUGAGCCCCCACCGGAGCUGGCUGGGGCUUGGGUCAGGGUGAGGAAUAAAAGGAGCGAGGAAUCAAUGUUUUUAA` — result for “RBNS enrichment (R)”: 0.384.
`CGCUUCUGCUUUCACCAAGAGAGUGUUUCUUCACUCAACUCAGGUGGCAUUUGGGGUGACAUCUCAAAGGCCAGGAAUUCCGUUGACUUGUUGGCUGCCAGUAGGGGCGG` — result for “RBNS enrichment (R)”: 0.899.

Study 4 — target: CCNB3, cyclin fold, Cln2 fusion (human); method: yeast growth competition, sequencing; sample: yeast; setting: weak parent motif; reference: not given; direction: higher = stronger binding
Starting sequence: PKN2 docking peptide (human); VSAVQKLDFSDTM
`D8W` — result for “normalised enrichment score”: 0.569.
Under “normalised enrichment score”, `D8I` is recorded as 0.635.
Under “normalised enrichment score”, `V4P` is recorded as 0.351.
`M13Y` — result for “normalised enrichment score”: 0.211.
Under “normalised enrichment score”, `K6H` is recorded as 0.225.
`L7A` — result for “normalised enrichment score”: 0.0103.
For `L7Y`, “normalised enrichment score” read 0.0547.
`V4E`: “normalised enrichment score” 0.326.
Under “normalised enrichment score”, `L7V` is recorded as 0.318.
`V4L` — result for “normalised enrichment score”: 0.595.
`S10M`: “normalised enrichment score” 0.366.
`M13Q`: “normalised enrichment score” -0.157.
`V1T` — result for “normalised enrichment score”: 0.322.
Under “normalised enrichment score”, `T12E` is recorded as 0.832.
`S2R` — result for “normalised enrichment score”: 0.321.
For `S10W`, “normalised enrichment score” read 0.274.
`M13H`: “normalised enrichment score” 0.29.
`A3F` — result for “normalised enrichment score”: 0.128.
`V1D` — result for “normalised enrichment score”: -0.236.
For `D8K`, “normalised enrichment score” read 0.457.
`A3Q`: “normalised enrichment score” 0.457.
For `L7P`, “normalised enrichment score” read -0.281.
`K6S` — result for “normalised enrichment score”: 0.245.
For `S2D`, “normalised enrichment score” read -0.102.
Under “normalised enrichment score”, `S2Y` is recorded as 0.398.

Single results of other studies
The fold induction of `PhoQ, residues 284 288 289 292 302 303 TYGVAM` is reported as 3.1 (PhoP, residues 12 14 15 18 19 SMASL (Escherichia coli, UniProt P23836); Sort-seq, refers to: YFP reporter; E. coli; PhoQ-PhoP variant library, with: 10 µM Mg2+; reference: high Mg2+ state, higher = stronger signaling).

A few entries again (study 2):
Under “relative binding score”, `V136D` is recorded as 9.31%.
`Q7D`: “relative binding score” 79.8%.
For `D96F`, “relative binding score” read 0.764%.
Under “relative binding score”, `S117T` is recorded as 3.2%.
For `H16L`, “relative binding score” read -2.39%.
